Measured values gathered from unrelated publications.
Each numbered part is a random draw from the data of one study; scales do not carry over between parts. Positions count from the first letter of the parent shown.

Sample 1
Target: Sal-like protein 4, full length isoform B (SALL4, Homo sapiens, UniProt Q9UJQ4-2, residues 1-616)
Technique: universal PBM
Molecule type: double-stranded DNA, one strand shown
Sample: in vitro
Concentration: not given
Setting: 8-mer, flanks averaged, mean of replicates
Direction: higher = stronger binding
Sequence | E-score
CCTGACCG | -0.278
ACACCGGA | -0.207
TATTAGGA | 0.304

Sample 2
Target: CCNA2, cyclin fold, Cln2 fusion (human)
Technique: yeast growth competition, sequencing
Sample: yeast
Setting: strong parent motif
Relative to: not given
Direction: higher = stronger binding
Starting sequence: CDKN1B docking peptide (human); PSACRNLFGPVDH
Change | normalised enrichment score
PSACRKLFGPVDH [N6K] | 4.09
PSACRHLFGPVDH [N6H] | 0.883
PSACRNLFGPVDS [H13S] | 4.59

Sample 3
Target: Centromere-binding protein 1, full length, N-terminal tag (CBF1, Saccharomyces cerevisiae, UniProt P17106, residues 1-351)
Sequence of UniProt P17106 (whole entry, looked up): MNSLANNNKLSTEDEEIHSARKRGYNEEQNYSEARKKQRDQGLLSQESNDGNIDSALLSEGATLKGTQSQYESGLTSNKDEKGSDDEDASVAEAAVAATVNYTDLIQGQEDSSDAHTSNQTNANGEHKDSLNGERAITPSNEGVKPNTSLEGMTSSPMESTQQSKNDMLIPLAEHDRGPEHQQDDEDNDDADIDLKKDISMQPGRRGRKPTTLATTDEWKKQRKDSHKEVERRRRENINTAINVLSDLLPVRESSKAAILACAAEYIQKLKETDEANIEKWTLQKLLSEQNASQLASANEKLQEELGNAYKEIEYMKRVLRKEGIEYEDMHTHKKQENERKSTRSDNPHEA
Technique: protein-binding microarray
Molecule type: double-stranded DNA, one strand shown
Sample: in vitro
Concentration: 0.8 µM
Setting: whole 60-bp probe, no competitor
Direction: higher = stronger binding
Sequence | fluorescence intensity [a.u.]
GAAGTTTTGGGTCATCATGCACTGCTGTTGGTATAGGTCTTGATTCGCTTGACGCTGCTG | 604
GAAGGGGCTTGTGGTCACCTGTCATAGGATGCCTAGGTCTTGATTCGCTTGACGCTGCTG | 2170
CTAATTTCTTCCAATTGAGTCACGTCGCGTCCTTTCGTCTTGATTCGCTTGACGCTGCTG | 1010
GAAAGTACTAAAAGTCACGAATTTAAAAATGCATAGGTCTTGATTCGCTTGACGCTGCTG | 616

Mixed results
Molecule | target | test | system | setting | how to read | measurement | value
PhoQ, residues 284 288 289 292 302 303 AGHLVA | PhoP, residues 12 14 15 18 19 NMSFL (Escherichia coli, UniProt P23836) | Sort-seq, measured: YFP reporter | E. coli | PhoQ-PhoP variant library, added: 10 µM Mg2+ | relative to: high Mg2+ state, higher = stronger signaling | fold induction | 18.9

Repeated from above (sample 1):
Sequence | E-score
ACACCGGA | -0.207
